Measured values collected from several papers.
Each line is one published result; not all experiments were run side by side. Numbers after ± are the reported error.
Target: Alpha-glucosidase MAL12 (MAL12, Saccharomyces cerevisiae S288c, UniProt P53341)
UniProt P53341, sequence (whole entry, looked up): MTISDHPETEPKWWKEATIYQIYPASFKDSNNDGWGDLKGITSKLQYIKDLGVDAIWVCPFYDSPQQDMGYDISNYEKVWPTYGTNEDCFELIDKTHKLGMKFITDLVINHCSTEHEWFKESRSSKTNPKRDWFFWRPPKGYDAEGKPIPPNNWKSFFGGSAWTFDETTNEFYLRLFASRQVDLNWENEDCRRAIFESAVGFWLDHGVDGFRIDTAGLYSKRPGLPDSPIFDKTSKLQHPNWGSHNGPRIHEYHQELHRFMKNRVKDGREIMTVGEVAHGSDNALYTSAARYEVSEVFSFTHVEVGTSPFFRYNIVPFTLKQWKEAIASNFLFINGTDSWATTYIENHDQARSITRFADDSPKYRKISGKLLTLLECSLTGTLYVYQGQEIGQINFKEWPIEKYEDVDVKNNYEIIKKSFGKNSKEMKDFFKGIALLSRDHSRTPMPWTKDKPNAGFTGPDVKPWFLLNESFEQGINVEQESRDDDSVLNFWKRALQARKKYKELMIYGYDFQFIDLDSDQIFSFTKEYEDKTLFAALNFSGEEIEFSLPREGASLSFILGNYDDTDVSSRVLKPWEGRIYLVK
Effect on: enzyme activity
Action: inhibitor

SMILES	method	organism	pH	temperature	added	IC50
COc1ccc(/C=N/N=C(c2ccc(N(C)C)cc2)c2ccc(N(C)C)cc2)cc1			pH 6.8	37 °C	p-nitrophenyl alpha-D-glucopyranoside	0.94 ± 2.21 µM
O=C1C(=O)N(CCOc2ccccc2)c2ccc(Cl)cc21						7.87 µM
CCCCCCSc1nc2ccccc2n1CC(=O)NN1C(=O)CSC1c1ccc(C(C)C)cc1 (stereo not drawn)	absorbance					65 µM
CN(C)c1ccc(C(=N/N=C/c2ccc(Cl)cc2)c2ccc(N(C)C)cc2)cc1			pH 6.8	37 °C	p-nitrophenyl alpha-D-glucopyranoside	0.31 ± 2.93 µM
O=C(O)c1c(O)cccc1CC(OC1OC(CO)C(O)C(O)C1O)c1ccc(O)cc1 (stereo not drawn)	absorbance					> 100 µM
O=C1C(=O)N(CCOc2ccccc2)c2ccccc21						39.6 µM
COc1ccc(/C=N/N=C(c2ccc(N(C)C)cc2)c2ccc(N(C)C)cc2)cc1OC			pH 6.8	37 °C	p-nitrophenyl alpha-D-glucopyranoside	0.31 ± 1.59 µM
COC(=O)C1=COC(OC2OC(CO)C(O)C(O)C2O)C2C1CC(O)C2C (stereo not drawn)	absorbance					> 100 µM
O=C(/C=C/c1ccc(O)c2oc(-c3ccc(O)c(O)c3)cc12)O[C@H](Cc1ccc(O)c(O)c1)C(=O)O		Saccharomyces cerevisiae				4.31 ± 0.42 µM
CC1=CC(=O)CC(C)(C)C1=CCC(C)OC1OC(CO)C(O)C(O)C1O (stereo not drawn)	absorbance					> 100 µM
COc1ccc(-c2c(C(F)(F)F)oc3c(Cn4cnc5ccccc54)c(O)ccc3c2=O)cc1			pH 6.8			15.9 ± 4.7 µM
CC(C=CC1C(CO)=CC(=O)CC1(C)C)OC1OC(CO)C(O)C(O)C1O (stereo not drawn)	absorbance					> 100 µM
O=C1C(=O)N(CCOc2ccc(Br)cc2)c2ccc(Cl)cc21						21.9 µM
O=C(O)c1ccc(O)c(O)c1	absorbance					> 100 µM
C[C@H]1[C@H](C)CC[C@]2(C(=O)O)CC[C@]3(C)C(=CCC4[C@@]5(C)CCC(=O)C(C)(C)C5CC[C@]43C)[C@H]12 (stereo partly drawn)						82.7 µM
